Results pooled from the literature.
Protocols differ between the studies behind these lines.
ABL1 M351T: Tyrosine-protein kinase ABL1 (ABL1, Homo sapiens, UniProt P00519, M351T)
UniProt O00506, sequence (whole entry, looked up): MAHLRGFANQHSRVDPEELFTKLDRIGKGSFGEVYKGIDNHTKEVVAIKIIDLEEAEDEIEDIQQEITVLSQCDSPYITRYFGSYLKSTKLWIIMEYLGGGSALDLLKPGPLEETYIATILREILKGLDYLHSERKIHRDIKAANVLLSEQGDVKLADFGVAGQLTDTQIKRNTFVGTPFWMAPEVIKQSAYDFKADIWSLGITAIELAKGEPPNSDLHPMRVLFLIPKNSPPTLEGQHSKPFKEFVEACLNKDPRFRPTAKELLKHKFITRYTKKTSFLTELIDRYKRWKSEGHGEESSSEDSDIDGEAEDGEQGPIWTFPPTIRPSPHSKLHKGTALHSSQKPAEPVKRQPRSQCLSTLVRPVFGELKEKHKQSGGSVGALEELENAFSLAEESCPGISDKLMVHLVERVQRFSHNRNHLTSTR

SMILES | target | effect on | action | method | tested at | endpoint | value
Cc1cc(NC(=O)c2cccc3cc(-c4cccc5[nH]nc(N)c45)ccc23)ccc1F | ABL1 (Homo sapiens, UniProt P00519, T315I) | enzyme activity | inhibitor | – | 0.1 µM | activity vs control | 98%
Nc1ncnc2occ(-c3ccc(NC(=O)Nc4cc(C(F)(F)F)ccc4F)cc3)c12 | Tyrosine-protein kinase ABL1, non-phosphorylated (ABL1, Homo sapiens, UniProt P00519, Q252H) | cell-free assay | inhibitor | – | 20 µM | remaining signal | 0%
COc1cc(-c2cc(-c3ccc(N4CCNCC4)cc3)cnc2N)cc(OC)c1OC | ABL1 M351T | enzyme activity | inhibitor | – | 1 µM | inhibition | 96%
CCCCC(=O)Nc1ccc(-c2ccc3ncn(CCC)c(=O)c3c2)cn1 | Tyrosine-protein kinase ABL1, phosphorylated (ABL1, Homo sapiens, UniProt P00519, F317I) | binding | – | competition with immobilised ligand | 0.5 µM | remaining binding | 100%
C=CC(=O)N1CCC(COCC(=O)N2CCN(c3nc(-c4cnc(N)nc4C(F)F)nc(N4CCOC[C@@H]4C)n3)CC2)CC1 | Tyrosine-protein kinase ABL1, non-phosphorylated (ABL1, Homo sapiens, UniProt P00519, F317I) | binding | – | competition with immobilised ligand | 1 µM | remaining binding | 76%
CNc1ncc2c(/C=C/C(=O)N3CCC(OC)CC3)nn(Cc3cccc(C(F)(F)F)c3)c2n1 | STK25 (Homo sapiens, UniProt O00506) | enzyme activity | inhibitor | radiometric | 1 µM | remaining activity | 95%
COc1cc(-c2cncc3c2CN(C)Cc2cc(N4CCNCC4)ccc2-3)cc(OC)c1OC | ABL1 M351T | enzyme activity | inhibitor | – | 1 µM | remaining activity | 71%
Cc1cc([C@@H](C)Nc2ccccc2C(=O)O)c2nc(N3CCC(F)(F)CC3)c(C#N)c(=O)n2c1 | Tyrosine-protein kinase ABL1, non-phosphorylated (ABL1, Homo sapiens, UniProt P00519) | binding | – | competition with immobilised ligand | 10 µM | remaining binding | 80%
C1=C/COCc2cc(ccc2OCCN2CCCC2)Nc2nccc(n2)-c2cccc(c2)COC/1 | ABL1 (Homo sapiens, UniProt P00519, F317I) | binding | – | – | 0.1 µM | remaining binding | 93%
